Measured values gathered from unrelated publications.
Every numbered part comes from another study and shows a few of its results, in no order.
UniProt P05771, sequence (whole entry, looked up): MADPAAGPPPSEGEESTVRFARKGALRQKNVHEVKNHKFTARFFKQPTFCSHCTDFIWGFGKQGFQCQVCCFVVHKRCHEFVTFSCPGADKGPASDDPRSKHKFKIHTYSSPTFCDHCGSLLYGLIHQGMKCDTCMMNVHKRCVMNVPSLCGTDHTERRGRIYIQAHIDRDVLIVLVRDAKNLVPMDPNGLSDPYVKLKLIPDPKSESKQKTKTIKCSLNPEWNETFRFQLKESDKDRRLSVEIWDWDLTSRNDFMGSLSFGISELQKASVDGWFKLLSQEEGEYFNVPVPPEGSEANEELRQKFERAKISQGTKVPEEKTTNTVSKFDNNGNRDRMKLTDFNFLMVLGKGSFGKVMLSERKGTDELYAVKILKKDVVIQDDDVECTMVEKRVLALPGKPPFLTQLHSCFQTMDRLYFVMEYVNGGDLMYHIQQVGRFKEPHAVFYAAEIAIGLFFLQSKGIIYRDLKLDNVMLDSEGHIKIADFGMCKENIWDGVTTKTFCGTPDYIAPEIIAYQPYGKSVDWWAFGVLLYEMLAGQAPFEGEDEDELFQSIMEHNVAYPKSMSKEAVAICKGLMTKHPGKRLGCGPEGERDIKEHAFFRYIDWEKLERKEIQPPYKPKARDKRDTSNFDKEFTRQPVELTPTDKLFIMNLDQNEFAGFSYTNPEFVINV
UniProt Q99720, sequence (whole entry, looked up): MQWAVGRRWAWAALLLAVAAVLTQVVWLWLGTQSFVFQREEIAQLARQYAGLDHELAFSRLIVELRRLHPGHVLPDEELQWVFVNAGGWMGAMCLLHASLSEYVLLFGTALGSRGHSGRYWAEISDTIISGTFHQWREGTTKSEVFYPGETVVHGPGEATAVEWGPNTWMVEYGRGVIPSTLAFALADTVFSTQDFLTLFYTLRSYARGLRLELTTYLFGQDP
UniProt P60842, sequence (whole entry, looked up): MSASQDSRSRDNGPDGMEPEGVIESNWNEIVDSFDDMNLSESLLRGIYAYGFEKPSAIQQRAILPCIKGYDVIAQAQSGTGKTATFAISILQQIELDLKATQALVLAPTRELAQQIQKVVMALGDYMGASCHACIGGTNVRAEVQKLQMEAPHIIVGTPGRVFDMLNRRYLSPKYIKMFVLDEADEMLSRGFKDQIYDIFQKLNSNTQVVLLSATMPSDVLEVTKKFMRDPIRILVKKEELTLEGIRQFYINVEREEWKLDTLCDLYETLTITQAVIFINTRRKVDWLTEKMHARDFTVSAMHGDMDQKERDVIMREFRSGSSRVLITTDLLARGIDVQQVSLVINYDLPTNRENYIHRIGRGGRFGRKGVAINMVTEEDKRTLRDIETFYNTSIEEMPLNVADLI
UniProt P62344, sequence (whole entry, looked up): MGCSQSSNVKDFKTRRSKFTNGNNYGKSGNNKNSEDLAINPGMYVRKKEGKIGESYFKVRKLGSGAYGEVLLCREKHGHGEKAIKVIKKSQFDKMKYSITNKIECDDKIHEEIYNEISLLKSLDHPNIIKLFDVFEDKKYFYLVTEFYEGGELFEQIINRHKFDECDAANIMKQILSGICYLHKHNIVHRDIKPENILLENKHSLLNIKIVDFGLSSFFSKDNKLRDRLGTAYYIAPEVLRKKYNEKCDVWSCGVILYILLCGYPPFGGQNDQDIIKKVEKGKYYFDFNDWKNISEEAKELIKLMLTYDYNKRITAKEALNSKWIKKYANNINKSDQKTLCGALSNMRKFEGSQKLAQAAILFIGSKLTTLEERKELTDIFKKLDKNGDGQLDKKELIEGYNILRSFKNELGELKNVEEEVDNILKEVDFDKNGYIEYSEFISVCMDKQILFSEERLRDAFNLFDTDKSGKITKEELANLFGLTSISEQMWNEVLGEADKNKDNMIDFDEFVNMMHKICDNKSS

Sample 1 — cell line: Huh-7; tested at: 10 µM; time: 24 h
`CCCC(C)C1(CC)C(=O)NC(=S)NC1=O` (stereo not shown) gave a viability of 103%.
With `C[N+]1(C)[C@@H]2CC[C@H]1C[C@@H](OC(=O)C(CO)c1ccccc1)C2` (stereo partly shown) the viability was 99.1%.
`CCC1(c2ccc(N)cc2)CCC(=O)NC1=O` (stereo not shown) has a viability of 97.4%.
`CC(C)C[C@H](CN)CC(=O)O` has a viability of 99%.

Further values, each from its own experiment
CAMK2A: Calcium/calmodulin-dependent protein kinase type II subunit alpha (CAMK2A, Homo sapiens, UniProt Q9UQM7)
UniProt Q9UQM7, sequence (whole entry, looked up): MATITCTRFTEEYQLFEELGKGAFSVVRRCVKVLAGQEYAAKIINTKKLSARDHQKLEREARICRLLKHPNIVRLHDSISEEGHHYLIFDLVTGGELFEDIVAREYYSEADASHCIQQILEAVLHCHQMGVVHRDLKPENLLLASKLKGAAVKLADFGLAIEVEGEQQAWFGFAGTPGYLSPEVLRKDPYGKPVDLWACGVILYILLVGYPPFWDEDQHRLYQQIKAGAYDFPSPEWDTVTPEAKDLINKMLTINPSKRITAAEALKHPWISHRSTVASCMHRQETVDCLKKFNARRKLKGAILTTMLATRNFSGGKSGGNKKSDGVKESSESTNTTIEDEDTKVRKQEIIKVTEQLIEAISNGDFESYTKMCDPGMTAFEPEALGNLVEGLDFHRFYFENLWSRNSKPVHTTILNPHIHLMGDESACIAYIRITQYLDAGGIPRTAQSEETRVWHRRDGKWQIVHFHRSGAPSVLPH
Under “fluorescence polarization change”, `COC(=O)[C@@H]1[C@@H](O)[C@@]2(O)c3c(OC)cc(OC)cc3O[C@@]2(c2ccc(OC)cc2)[C@H]1c1ccccc1` is recorded as 19.7 mP (EIF4A1 (Homo sapiens, UniProt P60842); RNA clamping, fluorescence polarization; concentration not given, added: FAM-labelled poly r(AG)8 RNA; higher = more clamping).
`CNC(=O)c1cc(C(=O)NC2CC2)cn(Cc2ccccc2)c1=O` gave an inhibition of -24.2% (SIGMAR1 (Homo sapiens, UniProt Q99720); binding, radioligand binding; 10 µM).
With `CC(C)=CCC[C@@](C)(O)[C@H]1CC[C@]2(C)[C@@H]1[C@H](O)C[C@@H]1[C@@]3(C)CC[C@H](O[C@@H]4O[C@H](CO)[C@@H](O)[C@H](O)[C@H]4O)C(C)(C)[C@@H]3CC[C@]12C` the inhibition was -3% (CAMK2A; enzyme activity, inhibitor; 10 µM).
For `O=c1[nH]c2ccccc2n1C1CCN(Cc2ccc(-c3[nH]c4cc5ncnc5cc4nc3-c3ccccc3)cc2)CC1`, the remaining activity was 105% (Protein kinase C beta type, isoform beta-II (PRKCB, Homo sapiens, UniProt P05771); enzyme activity, inhibitor; 0.5 µM; relative to: control).
`CC[C@H]1CN2CC[C@H]1C[C@H]2[C@H](O)c1ccnc2ccc(OC)cc12` has an inhibition of -50% (CAMK2A; enzyme activity, inhibitor; 10 µM).
The remaining binding of `CCS(=O)(=O)c1cc2cc(C[C@](O)(CC(C)(C)c3ccc(F)cc3C(N)=O)C(F)(F)F)[nH]c2cn1` is reported as 100% (CDPK1 (Plasmodium falciparum, UniProt P62344); cell-free assay, competition with immobilised ligand; 1 µM).

A few entries again (further values, each from its own experiment):
With `CC(C)=CCC[C@@](C)(O)[C@H]1CC[C@]2(C)[C@@H]1[C@H](O)C[C@@H]1[C@@]3(C)CC[C@H](O[C@@H]4O[C@H](CO)[C@@H](O)[C@H](O)[C@H]4O)C(C)(C)[C@@H]3CC[C@]12C` the inhibition was -3% (CAMK2A; enzyme activity, inhibitor; 10 µM).
Under “fluorescence polarization change”, `COC(=O)[C@@H]1[C@@H](O)[C@@]2(O)c3c(OC)cc(OC)cc3O[C@@]2(c2ccc(OC)cc2)[C@H]1c1ccccc1` is recorded as 19.7 mP (EIF4A1 (Homo sapiens, UniProt P60842); RNA clamping, fluorescence polarization; concentration not given, added: FAM-labelled poly r(AG)8 RNA; higher = more clamping).
